# Results from different studies.
# Parts stem from different laboratories: compare values within a part only. Changes are numbered by the printed parent chain.

# Block 1 — method: RNA Bind-n-Seq; form: RNA; medium: in vitro; tested at: 200 nM; notes: whole 134-nt RNA, ends assumed; with: 150 mM LiCl; reference: input library; reading: higher = stronger binding; library: 7-deaza-guanosine replaces G
# Target: Fragile X messenger ribonucleoprotein 1, C-terminal low-complexity region (Fmr1, Mus musculus, UniProt P35922)
# Shared flanks, not repeated: GGGAGUUCUACAGUCCGACGAUC … UGGAAUUCUCGGGUGUCAAGG
Oligonucleotide,log2 enrichment
UGCAGUCGAGCCAGCACCUGUUUCUGGACCUGCCUAAGGUAAGUGAGCUUUUCUCUCAACCUAGUUUUCAGGAGGCCUCUUCUGUCCCCU,0.0639
UGUGCUACACAUCGUAUGUACCGAAUCGGGGAAAAAAAGGGGAAAAAGGGGUUUUUUUGGGGAAAGUAUUAUGUUACGCCGUUCGGAUCU,-0.931
GUCCUGUGCUACACAUCGUAUGUACCGAAUCAAAUUUUUUUAAACCCCCAAACCCAAAAAAGUAUUAUGUUACGCCGUUCGGAUCUGCAC,1.16
AGUCCUGUGCUACACAUCGUAUGUACCGAAUCAAAUUUUUUUAAACCCAAACCCAAAAAAGUAUUAUGUUACGCCGUUCGGAUCUGCACU,0.551
ACCAUGCAGGUGGGCAUCUUUGGGAAGUGGGGCAAGGGGGGGAUAGGGAGGGGGGUAACACUUUGGGAACAGGUGGUCCCAGGUCGUUUC,1.01
GUCCUGUGCUACACAUCGUAUGUACCGAAUCAAACCCCCCCAAACCCAAAUUUUUAAAAAAGUAUUAUGUUACGCCGUUCGGAUCUGCAC,1.29

# Block 2 — target: CCND3, cyclin fold, Cln2 fusion (human); method: yeast growth competition, sequencing; medium: yeast; notes: weak parent motif; reference: not given; reading: higher = stronger binding
# Starting sequence: CDKN1A docking peptide (human); SKACRRLFGPVDS; partner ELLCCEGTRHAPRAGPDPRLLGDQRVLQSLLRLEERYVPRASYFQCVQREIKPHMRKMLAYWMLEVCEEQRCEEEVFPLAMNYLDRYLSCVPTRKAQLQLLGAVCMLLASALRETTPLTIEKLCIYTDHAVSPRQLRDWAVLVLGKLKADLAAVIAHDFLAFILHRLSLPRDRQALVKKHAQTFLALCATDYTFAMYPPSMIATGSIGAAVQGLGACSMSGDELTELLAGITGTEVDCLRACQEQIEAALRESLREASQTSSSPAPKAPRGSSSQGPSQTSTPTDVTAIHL
Variant,normalised enrichment score
F8D,0.32
G9R,0.211
V11I,0.468
L7M,0.552
P10F,-0.158

# Block 3 — method: protein binding microarray; form: double-stranded DNA, one strand shown; medium: in vitro; tested at: not given; reference: not given; reading: higher = stronger binding
# Target: Histone acetyltransferase KAT6A, both winged helices, GST fusion (KAT6A, Homo sapiens, UniProt Q92794, residues 1-181)
# Notes: 8-mer, flanks averaged, mean of 2 arrays, mostly near background
# Target sequence (chain): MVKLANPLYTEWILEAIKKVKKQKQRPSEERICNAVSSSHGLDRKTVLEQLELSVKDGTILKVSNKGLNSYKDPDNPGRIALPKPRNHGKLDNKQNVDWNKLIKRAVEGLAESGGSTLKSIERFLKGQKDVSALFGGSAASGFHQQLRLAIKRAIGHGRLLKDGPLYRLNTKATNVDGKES
Oligonucleotide,E-score
CGGGCCGA,0.22
CTTGACAA,0.0715
GATTTCAC,-0.0245
CCCTTGTC,-0.165
TCCCTAGA,-0.172
CCTAGGTA,-0.131
TGACCCAA,-0.276
CCTCGGAG,0.0112

# Mixed results
Molecule,target,test,test system,conditions,how to read,measurement,result
"PhoQ, residues 284 288 289 292 302 303 SACGEM","PhoP, residues 12 14 15 18 19 SQCLL (Escherichia coli, UniProt P23836)","Sort-seq, measured: YFP reporter",E. coli,"PhoQ-PhoP variant library, with: 10 µM Mg2+","reference: high Mg2+ state, higher = stronger signaling",fold induction,13.2

# Excerpt of the above (block 1):
Oligonucleotide,log2 enrichment
GUCCUGUGCUACACAUCGUAUGUACCGAAUCAAACCCCCCCAAACCCAAAUUUUUAAAAAAGUAUUAUGUUACGCCGUUCGGAUCUGCAC,1.29
